Results of several laboratories.
Sequence of UniProt Q9UQM7 (whole entry, looked up): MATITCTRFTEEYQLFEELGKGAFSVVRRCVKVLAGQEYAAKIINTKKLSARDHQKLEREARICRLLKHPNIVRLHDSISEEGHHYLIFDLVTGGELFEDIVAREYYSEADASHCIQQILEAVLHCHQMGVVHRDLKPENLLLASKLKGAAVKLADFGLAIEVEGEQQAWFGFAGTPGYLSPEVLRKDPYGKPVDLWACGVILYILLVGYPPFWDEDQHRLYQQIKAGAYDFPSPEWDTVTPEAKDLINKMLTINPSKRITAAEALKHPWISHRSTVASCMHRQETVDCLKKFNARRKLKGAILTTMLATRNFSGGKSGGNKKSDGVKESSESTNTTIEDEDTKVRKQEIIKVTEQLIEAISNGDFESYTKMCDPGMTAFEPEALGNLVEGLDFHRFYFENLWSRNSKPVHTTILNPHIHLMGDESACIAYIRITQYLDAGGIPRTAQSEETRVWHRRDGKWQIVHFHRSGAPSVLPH
Sequence of UniProt Q9Y4K4 (whole entry, looked up): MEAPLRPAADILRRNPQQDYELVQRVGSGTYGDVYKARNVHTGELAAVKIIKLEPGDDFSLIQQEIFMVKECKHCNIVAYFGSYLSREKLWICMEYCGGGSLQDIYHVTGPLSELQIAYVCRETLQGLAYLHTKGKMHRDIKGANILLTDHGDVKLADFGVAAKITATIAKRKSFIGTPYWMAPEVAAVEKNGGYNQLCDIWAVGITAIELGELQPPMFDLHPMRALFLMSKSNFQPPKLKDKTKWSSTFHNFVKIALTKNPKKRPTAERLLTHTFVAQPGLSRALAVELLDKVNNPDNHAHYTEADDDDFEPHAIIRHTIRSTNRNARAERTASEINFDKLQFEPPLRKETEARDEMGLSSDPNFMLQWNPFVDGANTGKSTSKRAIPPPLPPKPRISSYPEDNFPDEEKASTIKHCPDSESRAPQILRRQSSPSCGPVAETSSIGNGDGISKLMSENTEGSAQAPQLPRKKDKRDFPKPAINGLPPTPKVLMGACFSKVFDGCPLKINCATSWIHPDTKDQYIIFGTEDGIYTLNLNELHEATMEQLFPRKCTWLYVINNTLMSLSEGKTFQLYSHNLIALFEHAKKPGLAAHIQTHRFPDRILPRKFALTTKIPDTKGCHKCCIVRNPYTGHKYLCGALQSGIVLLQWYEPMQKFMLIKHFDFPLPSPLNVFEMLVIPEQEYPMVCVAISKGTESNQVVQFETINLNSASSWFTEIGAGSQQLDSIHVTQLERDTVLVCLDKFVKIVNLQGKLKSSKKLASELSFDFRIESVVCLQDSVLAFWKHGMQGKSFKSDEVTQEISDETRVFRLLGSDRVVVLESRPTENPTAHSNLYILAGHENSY
Sequence of UniProt Q9P1W9 (whole entry, looked up): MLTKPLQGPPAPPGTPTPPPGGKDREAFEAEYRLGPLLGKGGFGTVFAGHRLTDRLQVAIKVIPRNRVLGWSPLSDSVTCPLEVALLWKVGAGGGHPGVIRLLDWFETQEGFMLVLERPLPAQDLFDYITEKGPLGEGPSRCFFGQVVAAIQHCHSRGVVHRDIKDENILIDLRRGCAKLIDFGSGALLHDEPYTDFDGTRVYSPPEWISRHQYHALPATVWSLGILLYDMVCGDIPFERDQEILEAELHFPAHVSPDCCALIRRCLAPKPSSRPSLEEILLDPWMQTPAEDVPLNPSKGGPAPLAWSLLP
Sequence of UniProt Q9Y2H1 (whole entry, looked up): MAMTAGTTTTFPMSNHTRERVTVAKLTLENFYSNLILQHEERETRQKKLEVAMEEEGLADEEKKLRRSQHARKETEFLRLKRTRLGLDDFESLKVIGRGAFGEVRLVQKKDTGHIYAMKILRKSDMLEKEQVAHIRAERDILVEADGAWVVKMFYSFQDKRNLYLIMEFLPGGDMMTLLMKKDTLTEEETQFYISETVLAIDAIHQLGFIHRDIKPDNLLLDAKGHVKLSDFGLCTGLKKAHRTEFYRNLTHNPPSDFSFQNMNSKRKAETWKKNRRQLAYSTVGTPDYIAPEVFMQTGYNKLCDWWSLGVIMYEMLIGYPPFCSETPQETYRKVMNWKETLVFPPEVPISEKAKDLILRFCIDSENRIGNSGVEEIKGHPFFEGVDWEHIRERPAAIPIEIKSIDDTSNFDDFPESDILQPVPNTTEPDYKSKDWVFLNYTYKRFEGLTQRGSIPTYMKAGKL

CCc1cc(-c2noc(-c3cc(OC)nc(C4CCCC4)c3)n2)cc(C)c1OC[C@@H](O)CO  concentration (Wistar rat, plasma; oral, 0.1 mg/kg, 24 h, single dose): 1.5 ng/mL
CCOC(=O)[C@@]12C[C@@H]1[C@@H](n1ccc3c(NC)nc(C#Cc4ccc(Cl)s4)nc31)[C@H](O)[C@@H]2O  concentration (male Sprague-Dawley rat, plasma; intravenous, 0.5 mg/kg, 15 min): 12.4 ng/mL
Cc1noc(C)c1Cn1cc(N2C(=O)CN(Cc3cccc(O)c3)C2=O)cn1  concentration (male Sprague-Dawley rat, plasma; intravenous, 1 mg/kg, 15 min): 124 ng/mL
COc1ccc2c(=O)n(C)c(-c3ccccc3)nc2c1  concentration (male Sprague-Dawley rat, spleen; oral, 30 mg/kg, 15 min, single dose): 82.8 ng/g
O=Cc1cc2c(cc1F)C(=O)N(C1CCC(=O)NC1=O)C2 (stereo not drawn)  concentration (male CD-1 mouse, plasma; intravenous, 1 mg/kg, 4.98 min): 7.1 ng/mL
C=CC(=O)N1CCC(COCC(=O)N2CCN(c3nc(-c4cnc(N)nc4C(F)F)nc(N4CCOC[C@@H]4C)n3)CC2)CC1  remaining binding (MAP4K5 (Homo sapiens, UniProt Q9Y4K4); binding, competition with immobilised ligand; 1 µM): 96%
CNc1ncc2c(/C=C/C(=O)N3CCC(OC)CC3)nn(Cc3cccc(C(F)(F)F)c3)c2n1  remaining activity (CAMK2A (Homo sapiens, UniProt Q9UQM7); enzyme activity, inhibitor, radiometric; 1 µM): 95%
COc1cccc(-c2n[nH]c(SCc3ccccn3)n2)c1OC  concentration (female Sprague-Dawley rat, plasma; intravenous, 1 mg/kg, 4 h, single dose): 43.9 ng/mL
COc1cc(-c2cncc3c2CN(C)Cc2cc(N4CCNCC4)ccc2-3)cc(OC)c1OC  remaining activity (STK38L (Homo sapiens, UniProt Q9Y2H1); enzyme activity, inhibitor; 1 µM): 101%
O=c1nc(N2CCN(CC3CCCCC3)CC2)sc2c([N+](=O)[O-])cc(C(F)(F)F)cc12  concentration (CD-1 mouse, lung; intravenous, 10 mg/kg, 8 h): 534 ng/mL
NCc1cc2c(cc1F)C(=O)N(C1CCC(=O)NC1=O)C2 (stereo not drawn)  concentration (male CD-1 mouse, plasma; oral, 10 mg/kg, 2 h): 50.3 ng/mL
Cc1cc([C@@H](C)Nc2ccccc2C(=O)O)c2nc(N3CCC(F)(F)CC3)c(C#N)c(=O)n2c1  remaining binding (PIM2 (Homo sapiens, UniProt Q9P1W9); binding, competition with immobilised ligand; 1 µM): 91%

Repeated from above:
COc1cc(-c2cncc3c2CN(C)Cc2cc(N4CCNCC4)ccc2-3)cc(OC)c1OC  remaining activity (STK38L (Homo sapiens, UniProt Q9Y2H1); enzyme activity, inhibitor; 1 µM): 101%
CNc1ncc2c(/C=C/C(=O)N3CCC(OC)CC3)nn(Cc3cccc(C(F)(F)F)c3)c2n1  remaining activity (CAMK2A (Homo sapiens, UniProt Q9UQM7); enzyme activity, inhibitor, radiometric; 1 µM): 95%
